{"data": "Measurements gathered from unrelated publications", "note": "Every numbered part comes from another study and shows a few of its results, in no order. Positions count from the first letter of the parent shown.", "chain of UniProt P61075 (whole entry, looked up)": "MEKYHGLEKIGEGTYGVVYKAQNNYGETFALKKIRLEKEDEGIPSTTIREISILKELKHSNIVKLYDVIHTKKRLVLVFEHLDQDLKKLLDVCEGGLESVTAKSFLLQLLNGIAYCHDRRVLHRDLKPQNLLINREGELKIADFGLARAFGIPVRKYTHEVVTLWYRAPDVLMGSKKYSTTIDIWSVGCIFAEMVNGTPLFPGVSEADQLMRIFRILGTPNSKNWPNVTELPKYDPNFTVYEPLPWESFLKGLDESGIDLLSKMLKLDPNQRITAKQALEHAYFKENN", "chain of UniProt Q9UBX1 (whole entry, looked up)": "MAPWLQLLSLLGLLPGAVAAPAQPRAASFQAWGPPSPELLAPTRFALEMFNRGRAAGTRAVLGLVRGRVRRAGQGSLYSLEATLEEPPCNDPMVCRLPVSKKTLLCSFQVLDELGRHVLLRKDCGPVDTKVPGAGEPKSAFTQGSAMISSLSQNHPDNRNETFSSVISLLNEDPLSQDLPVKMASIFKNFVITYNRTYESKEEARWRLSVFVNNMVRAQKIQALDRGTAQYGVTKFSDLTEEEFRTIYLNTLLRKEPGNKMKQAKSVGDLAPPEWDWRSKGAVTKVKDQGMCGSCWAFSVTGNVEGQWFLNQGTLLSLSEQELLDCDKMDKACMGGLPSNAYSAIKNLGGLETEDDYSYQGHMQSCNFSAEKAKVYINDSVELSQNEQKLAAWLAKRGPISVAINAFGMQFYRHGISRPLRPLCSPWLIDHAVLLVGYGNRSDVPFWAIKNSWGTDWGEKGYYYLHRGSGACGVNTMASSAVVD"}
{"data": "Study 1", "target": "CCND3, cyclin fold, Cln2 fusion (human)", "method": "yeast growth competition, sequencing", "matrix": "yeast", "notes": "weak parent motif", "baseline": "not given", "reading": "higher = stronger binding", "starting sequence": "viral docking peptide; KGVKRKLFAEDSS"}
{"Change": "KYVKRKLFAEDSS [G2Y]", "normalised enrichment score": -0.304}
{"Change": "KGVKRKLFAEDWS [S12W]", "normalised enrichment score": -0.00904}
{"Change": "KGVKRKLFARDSS [E10R]", "normalised enrichment score": 0.0423}
{"Change": "KGVKRKLCAEDSS [F8C]", "normalised enrichment score": 0.28}
{"Change": "KGVKRKLFAEQSS [D11Q]", "normalised enrichment score": -0.465}
{"Change": "KGVKHKLFAEDSS [R5H]", "normalised enrichment score": 0.347}
{"Change": "KGVKRKLFVEDSS [A9V]", "normalised enrichment score": 0.274}
{"Change": "KGVKRKLLAEDSS [F8L]", "normalised enrichment score": -0.0893}
{"data": "Study 2", "target": "HLA class I histocompatibility antigen, A alpha chain, allele A*25:01 (Homo sapiens, UniProt P04439)", "observed": "peptide-MHC binding", "molecule type": "peptide", "tested at": "concentration not given"}
{"Sequence": "TRDHVNLVL", "binding": "inactive"}
{"Sequence": "ETMKPAAMV", "binding": "inactive"}
{"Sequence": "GFPFFIMPK", "binding": "inactive"}
{"Sequence": "NSTHNTPVY", "binding": "inactive"}
{"Sequence": "LEFNSSLAI", "binding": "inactive"}
{"Sequence": "DWMDRIEEF", "binding": "inactive"}
{"Sequence": "MHCDFAFWV", "binding": "inactive"}
{"Sequence": "MELSLRAIQ", "binding": "inactive"}
{"data": "Further values, each from its own experiment", "Diamine acetyltransferase 1": "Diamine acetyltransferase 1 (Homo sapiens, UniProt P21673)", "B1": "cystatin C; sequence looked up; chain SSPGKPPRLVGGPMDASVEEEGVRRALDFAVGEYNKASNDMYHSRALQVVRARKQIVAGVNYFLDVELGRTTCTKTQPNLDNCPFHDQPHLKRKAFCSFQIYAVPWQGTMTLSKSTCQDA", "chain of UniProt P21673 (whole entry, looked up)": "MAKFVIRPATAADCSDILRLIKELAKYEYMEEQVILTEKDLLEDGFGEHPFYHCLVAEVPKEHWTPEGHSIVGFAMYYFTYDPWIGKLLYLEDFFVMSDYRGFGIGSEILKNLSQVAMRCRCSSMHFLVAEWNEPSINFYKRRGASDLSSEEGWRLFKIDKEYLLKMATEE"}
{"Molecule": "COc1ccc(C=O)cc1", "tested on": "Diamine acetyltransferase 1", "assay": "inhibitor", "conditions": "10 µM", "scale": "baseline: control", "endpoint": "remaining activity", "value": "86.1%"}
{"Molecule": "B1 (cystatin C)", "tested on": "Cathepsin F (Homo sapiens, UniProt Q9UBX1)", "assay": "enzyme activity", "conditions": "1 µM", "endpoint": "inhibition", "value": "73%"}
{"Molecule": "CC(C(=O)[O-])c1cccc(Oc2ccccc2)c1.CC(C(=O)[O-])c1cccc(Oc2ccccc2)c1.[Ca+2] (centres unmarked)", "tested on": "HEK-293T-ACE2", "conditions": "concentration not given", "scale": "baseline: vehicle", "endpoint": "cell number", "value": "103%"}
{"Molecule": "CN(C)[C@H]1CCN(c2cc(-c3ccccc3)nc3ccnn23)C1", "tested on": "HTR1A (Homo sapiens, UniProt P08908)", "assay": "cell-free assay", "conditions": "10 µM", "endpoint": "inhibition", "value": "19.3%"}
{"Molecule": "Cl.NCC(=O)CCC(=O)O", "tested on": "HEK-293T-ACE2", "conditions": "concentration not given", "scale": "baseline: vehicle", "endpoint": "cell number", "value": "99.4%"}
{"Molecule": "Cc1c(NC(=O)c2cc(C(N)=O)nc3cc(F)ccc23)c(C(F)(F)F)nn1Cc1ccc(C(C)(C)C)cc1", "tested on": "CRK2 (Plasmodium falciparum, UniProt P61075)", "assay": "cell-free assay, competition with immobilised ligand", "conditions": "1 µM", "endpoint": "remaining binding", "value": "100%"}
{"Molecule": "O=c1ccc2ccc3occc3c2o1", "tested on": "Diamine acetyltransferase 1", "assay": "inhibitor", "conditions": "10 µM", "scale": "baseline: control", "endpoint": "remaining activity", "value": "103%"}
